Experimental data gathered from unrelated publications.
Lines come from different studies, so protocols differ. Numbers after ± are the reported error.
NPR2: Atrial natriuretic peptide receptor 2 (NPR2, Homo sapiens, UniProt P20594)
Sequence of UniProt P20594 (whole entry, looked up): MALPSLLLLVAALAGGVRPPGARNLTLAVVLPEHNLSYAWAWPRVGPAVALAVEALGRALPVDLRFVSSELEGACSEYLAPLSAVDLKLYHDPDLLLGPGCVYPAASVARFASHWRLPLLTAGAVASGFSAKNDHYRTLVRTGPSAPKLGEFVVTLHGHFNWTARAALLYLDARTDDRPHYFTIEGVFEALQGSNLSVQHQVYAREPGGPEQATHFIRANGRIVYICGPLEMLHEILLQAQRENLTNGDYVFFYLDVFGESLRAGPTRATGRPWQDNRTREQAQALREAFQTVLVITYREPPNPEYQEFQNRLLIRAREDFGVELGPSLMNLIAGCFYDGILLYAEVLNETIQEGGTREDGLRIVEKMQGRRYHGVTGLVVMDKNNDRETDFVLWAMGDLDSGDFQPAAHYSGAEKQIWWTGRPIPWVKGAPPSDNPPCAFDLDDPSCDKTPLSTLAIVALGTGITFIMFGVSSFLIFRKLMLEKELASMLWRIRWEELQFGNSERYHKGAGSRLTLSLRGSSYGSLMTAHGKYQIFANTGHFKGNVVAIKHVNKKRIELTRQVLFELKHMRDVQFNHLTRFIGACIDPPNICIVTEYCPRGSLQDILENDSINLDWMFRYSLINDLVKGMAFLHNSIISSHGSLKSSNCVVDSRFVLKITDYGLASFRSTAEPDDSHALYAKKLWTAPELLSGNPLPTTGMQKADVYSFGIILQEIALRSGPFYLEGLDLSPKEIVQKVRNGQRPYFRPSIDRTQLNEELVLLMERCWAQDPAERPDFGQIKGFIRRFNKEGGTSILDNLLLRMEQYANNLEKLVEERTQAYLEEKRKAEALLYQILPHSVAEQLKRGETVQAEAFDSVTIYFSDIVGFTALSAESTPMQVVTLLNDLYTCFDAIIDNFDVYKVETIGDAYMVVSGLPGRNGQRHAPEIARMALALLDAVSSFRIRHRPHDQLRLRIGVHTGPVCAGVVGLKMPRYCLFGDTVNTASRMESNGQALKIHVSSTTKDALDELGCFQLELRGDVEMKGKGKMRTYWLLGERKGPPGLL
MC5R: Melanocortin receptor 5 (MC5R, Homo sapiens, UniProt P33032)
Sequence of UniProt P33032 (whole entry, looked up): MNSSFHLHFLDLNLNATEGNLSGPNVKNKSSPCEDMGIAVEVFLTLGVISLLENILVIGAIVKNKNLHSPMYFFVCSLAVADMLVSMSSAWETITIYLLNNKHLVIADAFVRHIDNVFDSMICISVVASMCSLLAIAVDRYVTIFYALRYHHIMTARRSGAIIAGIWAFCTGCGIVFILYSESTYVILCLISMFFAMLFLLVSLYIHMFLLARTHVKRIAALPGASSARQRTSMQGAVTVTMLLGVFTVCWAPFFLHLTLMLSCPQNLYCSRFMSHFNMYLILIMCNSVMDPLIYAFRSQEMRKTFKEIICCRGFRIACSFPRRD
Methoprene-tolerant protein with Taiman: Methoprene-tolerant protein, with Taiman (Drosophila melanogaster, UniProt O44118)
Sequence of UniProt Q9Z282 (whole entry, looked up): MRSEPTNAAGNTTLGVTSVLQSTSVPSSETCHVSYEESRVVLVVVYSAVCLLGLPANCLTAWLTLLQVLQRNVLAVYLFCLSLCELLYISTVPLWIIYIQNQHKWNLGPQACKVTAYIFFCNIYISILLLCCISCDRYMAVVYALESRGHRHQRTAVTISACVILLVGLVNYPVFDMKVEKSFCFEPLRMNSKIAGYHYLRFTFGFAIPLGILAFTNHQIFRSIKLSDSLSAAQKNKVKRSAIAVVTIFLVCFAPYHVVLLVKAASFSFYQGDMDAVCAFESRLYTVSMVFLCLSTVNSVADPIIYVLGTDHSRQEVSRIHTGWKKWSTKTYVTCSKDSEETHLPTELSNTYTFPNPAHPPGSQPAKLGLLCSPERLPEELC
Sequence of UniProt O95136 (whole entry, looked up): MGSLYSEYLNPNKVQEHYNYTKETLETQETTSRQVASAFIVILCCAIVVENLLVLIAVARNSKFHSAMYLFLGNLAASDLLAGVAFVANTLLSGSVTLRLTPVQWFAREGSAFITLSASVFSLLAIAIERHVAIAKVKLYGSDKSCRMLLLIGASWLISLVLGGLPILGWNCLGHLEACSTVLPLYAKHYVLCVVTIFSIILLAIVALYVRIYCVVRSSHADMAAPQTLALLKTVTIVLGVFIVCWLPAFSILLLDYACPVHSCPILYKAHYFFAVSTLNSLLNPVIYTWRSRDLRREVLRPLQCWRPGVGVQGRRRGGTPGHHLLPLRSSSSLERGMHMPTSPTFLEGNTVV
Sequence of UniProt P25025 (whole entry, looked up): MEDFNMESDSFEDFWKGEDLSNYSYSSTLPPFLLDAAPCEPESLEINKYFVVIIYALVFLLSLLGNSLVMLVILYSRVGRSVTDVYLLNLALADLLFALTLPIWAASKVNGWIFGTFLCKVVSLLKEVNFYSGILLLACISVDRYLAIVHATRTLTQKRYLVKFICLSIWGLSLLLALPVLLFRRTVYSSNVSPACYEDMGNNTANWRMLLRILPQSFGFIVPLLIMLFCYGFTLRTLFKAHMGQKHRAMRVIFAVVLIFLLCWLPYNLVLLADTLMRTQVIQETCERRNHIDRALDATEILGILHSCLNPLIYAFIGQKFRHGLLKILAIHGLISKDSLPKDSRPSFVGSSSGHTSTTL
Sequence of UniProt P35414 (whole entry, unmodified, looked up): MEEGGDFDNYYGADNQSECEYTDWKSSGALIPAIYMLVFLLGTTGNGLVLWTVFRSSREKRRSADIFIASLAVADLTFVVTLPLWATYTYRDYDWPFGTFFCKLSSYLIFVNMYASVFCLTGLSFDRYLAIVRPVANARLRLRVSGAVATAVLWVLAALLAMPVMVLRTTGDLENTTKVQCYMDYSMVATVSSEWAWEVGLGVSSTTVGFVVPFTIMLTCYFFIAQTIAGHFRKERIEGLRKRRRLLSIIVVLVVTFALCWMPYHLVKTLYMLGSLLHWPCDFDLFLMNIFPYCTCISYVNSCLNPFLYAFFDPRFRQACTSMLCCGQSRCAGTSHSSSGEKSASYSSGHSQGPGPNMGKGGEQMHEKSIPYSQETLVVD
Sequence of UniProt O75762 (whole entry, looked up): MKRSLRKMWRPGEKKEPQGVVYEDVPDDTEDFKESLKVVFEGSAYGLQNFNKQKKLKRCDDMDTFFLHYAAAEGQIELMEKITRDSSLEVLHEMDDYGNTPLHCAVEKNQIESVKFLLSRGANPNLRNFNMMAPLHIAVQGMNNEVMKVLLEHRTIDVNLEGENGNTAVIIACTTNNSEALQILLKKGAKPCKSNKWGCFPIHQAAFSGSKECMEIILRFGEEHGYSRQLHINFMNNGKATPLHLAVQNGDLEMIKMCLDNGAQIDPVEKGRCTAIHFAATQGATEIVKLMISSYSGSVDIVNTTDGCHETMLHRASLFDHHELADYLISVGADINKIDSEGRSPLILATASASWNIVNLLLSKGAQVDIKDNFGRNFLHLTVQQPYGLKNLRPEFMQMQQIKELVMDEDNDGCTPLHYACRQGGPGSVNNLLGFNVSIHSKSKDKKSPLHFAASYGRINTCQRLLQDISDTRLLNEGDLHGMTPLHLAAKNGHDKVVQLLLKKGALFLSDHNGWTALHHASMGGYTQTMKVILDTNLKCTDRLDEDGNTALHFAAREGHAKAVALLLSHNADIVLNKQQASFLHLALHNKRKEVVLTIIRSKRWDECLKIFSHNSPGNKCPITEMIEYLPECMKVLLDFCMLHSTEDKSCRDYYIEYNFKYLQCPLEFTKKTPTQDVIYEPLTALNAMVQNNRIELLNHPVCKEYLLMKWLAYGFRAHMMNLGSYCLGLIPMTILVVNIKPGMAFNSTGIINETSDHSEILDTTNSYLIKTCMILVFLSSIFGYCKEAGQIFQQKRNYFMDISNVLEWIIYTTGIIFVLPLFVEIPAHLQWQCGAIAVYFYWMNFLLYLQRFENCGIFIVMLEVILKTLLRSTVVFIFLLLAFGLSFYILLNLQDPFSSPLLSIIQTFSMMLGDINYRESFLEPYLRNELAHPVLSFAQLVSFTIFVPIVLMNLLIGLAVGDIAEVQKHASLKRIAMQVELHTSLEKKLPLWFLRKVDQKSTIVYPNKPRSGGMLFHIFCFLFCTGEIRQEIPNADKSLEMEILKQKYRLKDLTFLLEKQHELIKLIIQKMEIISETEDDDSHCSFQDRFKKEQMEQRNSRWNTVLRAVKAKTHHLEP
Sequence of UniProt P97468 (whole entry, looked up): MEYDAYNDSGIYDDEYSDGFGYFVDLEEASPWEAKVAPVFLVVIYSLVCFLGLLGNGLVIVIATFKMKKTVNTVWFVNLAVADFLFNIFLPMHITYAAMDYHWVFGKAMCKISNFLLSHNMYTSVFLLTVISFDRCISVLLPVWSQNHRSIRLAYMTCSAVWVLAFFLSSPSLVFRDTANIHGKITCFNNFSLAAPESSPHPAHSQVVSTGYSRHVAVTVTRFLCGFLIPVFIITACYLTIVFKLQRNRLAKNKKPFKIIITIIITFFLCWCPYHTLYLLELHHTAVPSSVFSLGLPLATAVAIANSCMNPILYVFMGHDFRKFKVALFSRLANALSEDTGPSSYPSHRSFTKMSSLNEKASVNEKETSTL
Sequence of UniProt P35462 (whole entry, looked up): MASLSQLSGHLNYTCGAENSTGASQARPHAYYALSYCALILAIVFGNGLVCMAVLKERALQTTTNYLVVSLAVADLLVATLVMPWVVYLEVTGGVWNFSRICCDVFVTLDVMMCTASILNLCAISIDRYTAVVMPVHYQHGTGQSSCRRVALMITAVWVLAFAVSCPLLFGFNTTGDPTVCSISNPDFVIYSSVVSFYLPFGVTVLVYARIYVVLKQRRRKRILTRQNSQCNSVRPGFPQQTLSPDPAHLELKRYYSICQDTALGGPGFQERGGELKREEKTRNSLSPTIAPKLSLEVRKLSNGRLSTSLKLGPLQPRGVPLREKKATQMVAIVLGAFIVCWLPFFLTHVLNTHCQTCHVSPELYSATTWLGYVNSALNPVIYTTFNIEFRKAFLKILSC

C[C@H](NC(=O)[C@H](Cc1ccccc1)NC(=O)[C@H](CCC(N)=O)NC(=O)CNC(=O)[C@@H]1CCCN1C(=O)[C@H](Cc1ccccc1)NC(=O)[C@H](Cc1ccc(O)cc1)NC(=O)[C@H](Cc1ccccc1)NC(=O)[C@H](CO)NC(=O)[C@H](Cc1c[nH]cn1)NC(=O)[C@@H]1CCCN1)C(=O)N[C@@H](Cc1ccccc1)C(=O)N[C@@H](CO)C(=O)O  EC50 (Chemerin-like receptor 1 (Mus musculus, UniProt P97468); calcium signal, agonist, fluorescence): 42.2 nM
S=C(c1ccc(-c2cc(Cl)ccc2Cl)o1)N1CCNCC1  EC50 (NPR2; cGMP production, positive allosteric modulator, cGMP HTRF; HEK293 expressing human GC-B; with: CNP at EC30): > 10000 nM
CSCC[C@H](NC(=O)[C@@H]1CCCN1C(=O)CNC(=O)[C@H](CCCCN)NC(=O)[C@H](Cc1c[nH]cn1)NC(=O)[C@H](CO)NC(=O)[C@H](CC(C)C)NC(=O)[C@H](CCCNC(=N)N)NC(=O)[C@@H]1CCCN1C(=O)[C@H](CCCNC(=N)N)NC(=O)[C@H](CCC(N)=O)NC(=O)[C@H](CCCNC(=N)N)NC(=O)[C@H](CCCNC(=N)N)NC(=O)[C@H](Cc1ccccc1)NC(=O)[C@H](CCCCN)NC(=O)[C@H](CCCNC(=N)N)NC(=O)[C@H](CCCNC(=N)N)NC(=O)CNC(=O)CNC(=O)[C@H](CCC(N)=O)NC(=O)[C@H](Cc1c[nH]c2ccccc12)NC(=O)[C@@H]1CCCN1C(=O)CNC(=O)[C@@H]1CCCN1C(=O)CNC(=O)[C@H](CC(N)=O)NC(=O)[C@H](CCCNC(=N)N)NC(=O)[C@H](CO)NC(=O)CNC(=O)[C@H](CCCNC(=N)N)NC(=O)[C@@H]1CCCN1C(=O)[C@H](CCC(N)=O)NC(=O)[C@@H](NC(=O)[C@@H](N)CC(C)C)C(C)C)C(=O)N1CCC[C@H]1C(=O)N[C@@H](Cc1ccccc1)C(=O)O  EC50 (Apelin receptor (APLNR, Homo sapiens, UniProt P35414, S339A); β-arrestin-1 recruitment, agonist, BRET; HEK293; 15 min): 9.72 ± 0.85 nM
NC(CO)CCc1ccccc1Cl (racemic)  EC50 (DRD3 (Homo sapiens, UniProt P35462); phosphorylation in cells, agonist, western blot): 859 nM
N#CCCN1CCN(C(=S)c2ccc(-c3cc(Cl)ccc3Cl)o2)CC1  EC50 (NPR2; cGMP production, positive allosteric modulator, cGMP HTRF; HEK293 expressing human GC-B; with: CNP at EC30): 790 nM
N=C(N)NCCC[C@H](NC(=O)[C@H](CC(=O)O)NC(=O)[C@@H]1CSCCCC(=O)NCC(=O)N[C@@H](Cc2c[nH]cn2)C(=O)N[C@H](Cc2ccccc2)C(=O)N[C@@H](CCCNC(=N)N)C(=O)N[C@H](Cc2c[nH]c3ccccc23)C(=O)N1)C(=O)N[C@@H](Cc1ccccc1)C(=O)NCC(N)=O  EC50 (MC5R; cAMP, agonist): 1300 nM
CN(CC(=O)N1CCN(c2ccccn2)CC1)c1nc2ccccc2s1  EC50 (Methoprene-tolerant protein with Taiman; reporter gene, agonist; HEK293T expressing Drosophila Met/Tai; 24 h): > 100000 nM
CC[C@H](C)[C@@H]1NC(=O)[C@H](CCCNC(=N)N)NC(=O)[C@H](CC(=O)O)NC(=O)[C@H](CC(C)C)NC(=O)[C@H](CCCCN)NC(=O)[C@H](CC(C)C)NC(=O)CNC(=O)[C@H](Cc2ccccc2)NC(=O)[C@@H](NC(=O)CNC(=O)[C@H](CCCCN)NC(=O)[C@H](CO)NC(=O)[C@H](CC(C)C)NC(=O)CN)CSSC[C@@H](C(=O)O)NC(=O)CNC(=O)[C@H](CC(C)C)NC(=O)CNC(=O)[C@H](CO)NC(=O)[C@H](CCSC)NC(=O)[C@H](CO)NC(=O)CNC1=O  EC50 (NPR2; cGMP production, agonist; HEK293 expressing GC-B): 3 nM
Cc1cc(C)n(-c2ccc(C[S+]([O-])CC3CCCCO3)cc2)n1 (centres unmarked)  EC50 (Methoprene-tolerant protein with Taiman; reporter gene, agonist; HEK293T expressing Drosophila Met/Tai; 24 h): > 100000 nM
N#CCCN1CCN(C(=S)c2ccc(-c3cccc(Cl)c3)o2)CC1  EC50 (NPR2; cGMP production, positive allosteric modulator, cGMP HTRF; HEK293 expressing human GC-B; with: CNP at EC30): 830 nM
C[C@@H](Nc1c(Nc2ccncc2)c(=O)c1=O)c1ccccc1  EC50 (CXCR2 (Homo sapiens, UniProt P25025); β-arrestin recruitment, agonist): 254 nM
O=C(NC[C@H](Cc1ccccc1)N1CCC(O)(C(F)(F)F)CC1)C1(c2ccc(Cl)cc2)CCCC1  EC50 (TRPA1 (Homo sapiens, UniProt O75762); calcium signal, agonist): > 10000 nM
N=C(N)NCCC[C@H](NC(=O)[C@H](CC(=O)O)NC(=O)[C@@H]1CSCCC(=O)NCC(=O)N[C@@H](Cc2c[nH]cn2)C(=O)N[C@H](Cc2ccccc2)C(=O)N[C@@H](CCCNC(=N)N)C(=O)N[C@H](Cc2c[nH]c3ccccc23)C(=O)N1)C(=O)N[C@@H](Cc1ccccc1)C(=O)NCC(N)=O  EC50 (MC5R; cAMP, agonist): 1000 nM
Cc1cc(Br)cnc1OCCCNc1n[s+]([O-])nc1NCc1ccc[n+]([O-])c1 (centres unmarked)  EC50 (Probable G-protein coupled receptor 132 (Gpr132, Mus musculus, UniProt Q9Z282); β-arrestin recruitment, agonist, PathHunter; cell-based): 1580 nM
CC(Oc1ccccc1)C(=O)NCC1CCN(c2ccccn2)CC1 (centres unmarked)  EC50 (Methoprene-tolerant protein with Taiman; reporter gene, agonist; HEK293T expressing Drosophila Met/Tai; 24 h): > 100000 nM
COCCN1CCN(C(=S)c2ccc(-c3cc(Cl)ccc3Cl)o2)CC1  EC50 (NPR2; cGMP production, positive allosteric modulator, cGMP HTRF; HEK293 expressing human GC-B; with: CNP at EC30): > 10000 nM
Cc1cc(C(=O)Cn2ccccc2=O)c(C)n1Cc1ccccc1  EC50 (S1PR2 (Homo sapiens, UniProt O95136); reporter gene, agonist): > 10000 nM

A few entries again:
N#CCCN1CCN(C(=S)c2ccc(-c3cccc(Cl)c3)o2)CC1  EC50 (NPR2; cGMP production, positive allosteric modulator, cGMP HTRF; HEK293 expressing human GC-B; with: CNP at EC30): 830 nM
C[C@@H](Nc1c(Nc2ccncc2)c(=O)c1=O)c1ccccc1  EC50 (CXCR2 (Homo sapiens, UniProt P25025); β-arrestin recruitment, agonist): 254 nM
